Literature values as cited in several papers.

CCCCN(CCCC)CCC(O)c1cc2c(Cl)cc(Cl)cc2c2cc(C(F)(F)F)ccc12 (centres unmarked)  logP: 8.6
CN1CC[C@]23c4c5ccc(O)c4O[C@H]2[C@@H](O)CC[C@H]3[C@H]1C5  logP: 1.13
ClC1=C(Cl)C2(Cl)C3C4CC(C5OC45)C3C1(Cl)C2(Cl)Cl (centres unmarked)  logP: 4.88
COc1ccc(C(c2ccc(OC)cc2)C(Cl)(Cl)Cl)cc1  logP: 5.08
ClC(Cl)=C(c1ccc(Cl)cc1)c1ccc(Cl)cc1  logP: 6.37
Cc1ncc(OC[C@@]2(c3cccc(F)c3)C[C@H]2C(=O)Nc2ccc(F)cn2)c(C)n1  logP (octanol/water): 3.04
CC1(C)CCC(CN2CCN(c3ccc(C(=O)NS(=O)(=O)c4ccc(NCC5CCOCC5)c([N+](=O)[O-])c4)c(Oc4cnc5[nH]ccc5c4)c3)CC2)=C(c2ccc(Cl)cc2)C1  logP (octanol/water): 8
O=C(C[18F])NCCCCCC(=O)Nc1ccccc1  logP: 1.39
CC(C)C[C@H](NC(=O)CNC(=O)c1cc(Cl)ccc1Cl)B(O)O  logP: 2.07
O=C(O)C(F)(F)C(F)(F)C(F)(F)C(F)(F)C(F)(F)C(F)(F)C(F)(F)F  logP (n-octanol/water): 3.6
Cc1ccnc(-c2cc(C)ccn2)c1.[Ru+2].c1ccc(-c2ccnc3c2ccc2c(-c4ccccc4)ccnc23)cc1.c1ccc(-c2ccnc3c2ccc2c(-c4ccccc4)ccnc23)cc1  logP: 1.4

For quick reference, copied from above:
O=C(C[18F])NCCCCCC(=O)Nc1ccccc1  logP: 1.39
